Results gathered from unrelated publications.
Compare with care: the assays were run in different laboratories.
GBA2: Beta-glucosidase (GBA2, Homo sapiens, UniProt Q9HCG7)
Sequence of UniProt Q9HCG7 (whole entry, looked up): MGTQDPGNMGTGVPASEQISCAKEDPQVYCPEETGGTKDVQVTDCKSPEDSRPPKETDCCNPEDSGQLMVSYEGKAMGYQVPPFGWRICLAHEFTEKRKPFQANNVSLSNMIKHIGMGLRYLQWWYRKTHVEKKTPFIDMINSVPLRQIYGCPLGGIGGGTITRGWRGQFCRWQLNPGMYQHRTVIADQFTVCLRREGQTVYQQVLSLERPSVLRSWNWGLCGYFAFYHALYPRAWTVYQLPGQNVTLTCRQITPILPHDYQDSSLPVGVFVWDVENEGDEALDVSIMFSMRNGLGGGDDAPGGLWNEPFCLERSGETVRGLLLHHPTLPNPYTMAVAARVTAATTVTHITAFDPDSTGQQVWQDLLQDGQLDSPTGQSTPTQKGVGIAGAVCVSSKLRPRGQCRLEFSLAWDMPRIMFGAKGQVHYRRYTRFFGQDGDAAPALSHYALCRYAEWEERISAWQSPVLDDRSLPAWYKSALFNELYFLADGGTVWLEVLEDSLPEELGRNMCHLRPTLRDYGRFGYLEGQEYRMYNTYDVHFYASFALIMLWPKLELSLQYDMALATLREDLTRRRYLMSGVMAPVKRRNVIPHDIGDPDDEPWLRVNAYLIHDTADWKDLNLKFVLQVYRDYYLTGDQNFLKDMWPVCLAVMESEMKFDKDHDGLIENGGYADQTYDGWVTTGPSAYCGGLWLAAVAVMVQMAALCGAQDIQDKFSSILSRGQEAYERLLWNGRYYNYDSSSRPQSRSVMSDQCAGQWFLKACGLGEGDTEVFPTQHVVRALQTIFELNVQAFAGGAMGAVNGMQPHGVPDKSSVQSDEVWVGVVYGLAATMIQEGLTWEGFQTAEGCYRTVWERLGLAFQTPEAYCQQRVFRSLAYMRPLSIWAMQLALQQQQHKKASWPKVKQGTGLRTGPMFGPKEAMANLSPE
PPARA ligand-binding domain: Peroxisome proliferator-activated receptor alpha, ligand-binding domain (PPARA, Homo sapiens, UniProt Q07869)
Sequence of UniProt Q07869 (whole entry, looked up): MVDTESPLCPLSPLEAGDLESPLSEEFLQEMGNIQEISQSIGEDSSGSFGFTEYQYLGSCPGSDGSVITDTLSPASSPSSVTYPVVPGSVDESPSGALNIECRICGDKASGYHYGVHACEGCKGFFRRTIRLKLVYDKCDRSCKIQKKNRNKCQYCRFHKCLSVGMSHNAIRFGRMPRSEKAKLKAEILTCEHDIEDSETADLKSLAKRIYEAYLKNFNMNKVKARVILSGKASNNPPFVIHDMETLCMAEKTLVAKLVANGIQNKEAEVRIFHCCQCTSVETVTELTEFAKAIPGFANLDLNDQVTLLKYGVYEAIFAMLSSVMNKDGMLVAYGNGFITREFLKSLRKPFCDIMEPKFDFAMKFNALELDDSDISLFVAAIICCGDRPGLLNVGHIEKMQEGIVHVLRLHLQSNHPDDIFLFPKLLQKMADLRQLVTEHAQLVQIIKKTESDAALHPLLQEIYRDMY
PIK3CG: Phosphatidylinositol 4,5-bisphosphate 3-kinase catalytic subunit gamma isoform (PIK3CG, Homo sapiens, UniProt P48736)
Sequence of UniProt P48736 (whole entry, looked up): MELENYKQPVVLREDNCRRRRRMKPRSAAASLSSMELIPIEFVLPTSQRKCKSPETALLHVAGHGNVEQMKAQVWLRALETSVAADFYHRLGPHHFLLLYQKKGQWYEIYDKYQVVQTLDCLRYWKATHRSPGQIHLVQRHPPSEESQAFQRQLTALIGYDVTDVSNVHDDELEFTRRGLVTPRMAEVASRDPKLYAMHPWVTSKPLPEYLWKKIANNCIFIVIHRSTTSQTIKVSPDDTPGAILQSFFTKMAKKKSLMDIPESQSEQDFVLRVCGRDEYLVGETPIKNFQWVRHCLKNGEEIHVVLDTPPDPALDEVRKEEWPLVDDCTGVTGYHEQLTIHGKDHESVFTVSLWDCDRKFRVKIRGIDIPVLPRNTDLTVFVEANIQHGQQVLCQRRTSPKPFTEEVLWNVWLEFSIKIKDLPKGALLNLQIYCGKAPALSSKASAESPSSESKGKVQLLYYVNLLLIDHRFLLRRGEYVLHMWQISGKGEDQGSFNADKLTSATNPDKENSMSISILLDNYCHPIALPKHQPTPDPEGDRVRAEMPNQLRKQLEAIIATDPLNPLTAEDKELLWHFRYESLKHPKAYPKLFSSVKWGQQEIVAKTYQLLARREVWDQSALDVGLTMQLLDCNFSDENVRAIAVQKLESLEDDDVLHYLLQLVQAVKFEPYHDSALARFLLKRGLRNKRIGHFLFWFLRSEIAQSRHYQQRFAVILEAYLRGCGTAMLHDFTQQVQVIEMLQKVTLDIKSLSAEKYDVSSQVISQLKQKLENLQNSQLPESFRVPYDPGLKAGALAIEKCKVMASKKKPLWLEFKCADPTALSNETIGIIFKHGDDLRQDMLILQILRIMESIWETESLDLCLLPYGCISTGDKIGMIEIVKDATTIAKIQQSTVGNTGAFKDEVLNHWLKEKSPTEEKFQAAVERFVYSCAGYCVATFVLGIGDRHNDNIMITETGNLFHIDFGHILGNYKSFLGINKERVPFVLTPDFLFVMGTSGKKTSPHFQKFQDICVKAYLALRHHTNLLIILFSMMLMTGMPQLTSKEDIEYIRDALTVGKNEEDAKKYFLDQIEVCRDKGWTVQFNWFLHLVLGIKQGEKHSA
Chymotrypsinogen A: Chymotrypsinogen A (Bos taurus, UniProt P00766)
Sequence of UniProt P35346 (whole entry, unmodified, looked up): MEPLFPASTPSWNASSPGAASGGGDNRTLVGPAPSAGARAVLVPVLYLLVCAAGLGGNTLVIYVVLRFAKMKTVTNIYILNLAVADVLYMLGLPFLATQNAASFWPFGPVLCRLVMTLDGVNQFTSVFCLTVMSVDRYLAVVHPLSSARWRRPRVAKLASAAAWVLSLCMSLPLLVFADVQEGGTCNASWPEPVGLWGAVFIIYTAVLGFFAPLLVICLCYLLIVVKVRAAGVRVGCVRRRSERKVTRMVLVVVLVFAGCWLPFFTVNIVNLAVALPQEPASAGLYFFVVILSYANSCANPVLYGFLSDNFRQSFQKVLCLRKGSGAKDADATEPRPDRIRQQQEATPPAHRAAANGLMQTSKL
Sequence of UniProt P32246 (whole entry, looked up): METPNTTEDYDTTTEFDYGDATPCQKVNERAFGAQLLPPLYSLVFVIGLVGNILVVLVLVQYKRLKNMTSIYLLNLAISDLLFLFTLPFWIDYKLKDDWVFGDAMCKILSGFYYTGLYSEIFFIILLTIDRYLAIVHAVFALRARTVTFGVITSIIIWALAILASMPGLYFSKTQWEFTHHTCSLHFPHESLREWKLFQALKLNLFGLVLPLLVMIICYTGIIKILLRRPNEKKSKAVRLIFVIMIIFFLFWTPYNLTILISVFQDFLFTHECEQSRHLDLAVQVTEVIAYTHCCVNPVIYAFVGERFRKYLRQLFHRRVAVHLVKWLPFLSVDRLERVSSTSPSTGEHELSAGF
Sequence of UniProt Q8IXJ6 (whole entry, looked up): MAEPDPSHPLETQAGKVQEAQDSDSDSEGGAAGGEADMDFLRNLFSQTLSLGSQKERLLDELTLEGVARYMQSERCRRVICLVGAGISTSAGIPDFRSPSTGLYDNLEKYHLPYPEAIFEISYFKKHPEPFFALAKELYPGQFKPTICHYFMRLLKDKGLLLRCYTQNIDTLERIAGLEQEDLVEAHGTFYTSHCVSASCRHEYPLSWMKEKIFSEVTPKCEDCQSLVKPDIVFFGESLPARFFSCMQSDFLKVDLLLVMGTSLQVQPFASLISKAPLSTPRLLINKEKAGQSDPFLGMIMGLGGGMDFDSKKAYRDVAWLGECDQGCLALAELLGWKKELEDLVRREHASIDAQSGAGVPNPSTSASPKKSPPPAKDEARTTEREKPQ
Sequence of UniProt Q8TBX8 (whole entry, looked up): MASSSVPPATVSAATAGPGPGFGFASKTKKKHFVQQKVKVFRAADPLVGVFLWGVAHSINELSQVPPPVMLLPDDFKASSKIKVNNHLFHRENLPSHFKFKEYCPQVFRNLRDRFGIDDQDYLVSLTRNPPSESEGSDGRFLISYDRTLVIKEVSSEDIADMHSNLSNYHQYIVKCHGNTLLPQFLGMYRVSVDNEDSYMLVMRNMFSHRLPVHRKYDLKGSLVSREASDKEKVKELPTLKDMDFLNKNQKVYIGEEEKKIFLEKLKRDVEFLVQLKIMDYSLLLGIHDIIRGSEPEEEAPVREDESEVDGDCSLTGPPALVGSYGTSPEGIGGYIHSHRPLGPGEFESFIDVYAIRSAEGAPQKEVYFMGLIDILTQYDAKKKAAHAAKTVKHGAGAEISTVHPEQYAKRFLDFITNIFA
Sequence of UniProt O14757 (whole entry, looked up): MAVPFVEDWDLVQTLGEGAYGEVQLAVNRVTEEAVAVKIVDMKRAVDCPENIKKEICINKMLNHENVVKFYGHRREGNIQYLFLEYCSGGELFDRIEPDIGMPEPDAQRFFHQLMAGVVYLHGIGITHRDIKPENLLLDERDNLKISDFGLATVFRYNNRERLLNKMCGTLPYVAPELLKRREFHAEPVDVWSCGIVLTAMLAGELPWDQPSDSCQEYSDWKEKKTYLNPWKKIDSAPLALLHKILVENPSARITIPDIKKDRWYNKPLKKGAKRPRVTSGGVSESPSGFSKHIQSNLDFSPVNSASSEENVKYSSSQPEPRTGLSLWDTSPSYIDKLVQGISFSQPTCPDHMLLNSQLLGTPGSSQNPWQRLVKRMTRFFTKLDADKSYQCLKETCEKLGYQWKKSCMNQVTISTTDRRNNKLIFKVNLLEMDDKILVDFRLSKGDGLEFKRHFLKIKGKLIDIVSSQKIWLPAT
Sequence of UniProt Q04771 (whole entry, looked up): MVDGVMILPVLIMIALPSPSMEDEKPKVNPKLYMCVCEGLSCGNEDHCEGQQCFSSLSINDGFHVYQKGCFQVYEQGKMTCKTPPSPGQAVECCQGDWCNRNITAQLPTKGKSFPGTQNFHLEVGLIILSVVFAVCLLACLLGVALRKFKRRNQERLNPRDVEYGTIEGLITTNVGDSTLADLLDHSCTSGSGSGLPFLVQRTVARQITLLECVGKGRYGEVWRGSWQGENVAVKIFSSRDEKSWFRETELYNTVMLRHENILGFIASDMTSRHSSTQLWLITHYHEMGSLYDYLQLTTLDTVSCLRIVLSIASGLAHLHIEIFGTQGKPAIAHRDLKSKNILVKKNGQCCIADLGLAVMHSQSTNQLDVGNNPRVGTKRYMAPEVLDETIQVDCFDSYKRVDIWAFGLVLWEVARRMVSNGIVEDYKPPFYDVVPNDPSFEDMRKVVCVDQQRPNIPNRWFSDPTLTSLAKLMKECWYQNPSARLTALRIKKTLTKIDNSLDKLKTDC

`OC[C@@H]1[C@@H](O)[C@H](O)[C@@H](O)CN1CCCCCOCc1ccc(-c2ccc3c(c2)OCCCO3)cc1` gave an IC50 of 0.015 µM (GBA2; inhibitor, 4MU-β-D-glucopyranoside; HEK293T homogenates overexpressing GBA2).
For `Cc1c(Cc2cccc(OC(C)C(=O)O)c2)c2ccc(C(=O)NC(C)c3cccc(C(C)(C)C)c3)cc2n1C` (mixture of isomers), the IC50 was 15.1 µM (PPARA ligand-binding domain; reporter gene, luciferase reporter; HEK293T, Gal4-PPARα LBD).
The IC50 of `O=C1/C(=N\c2ccc(Cl)cc2Br)c2ccccc2N1C(=O)c1ccccc1` is reported as 0.0996 µM (PIK3CG; enzyme activity, inhibitor, ADP detection).
`CC(C)(O)CC#Cc1ccc2[nH]c3c(c2c1)-c1nc(N)ncc1CCC3` gave an IC50 of 0.038 µM (PIP4K2C (Homo sapiens, UniProt Q8TBX8); target engagement in cells, BRET).
`OC[C@H]1[C@@H](O)[C@H](O)[C@@H](O)CN1CCCCCOCc1ccccc1` gave an IC50 of 0.003 µM (GBA2; inhibitor, 4MU-β-D-glucopyranoside; HEK293T homogenates overexpressing GBA2).
`Cc1c(Cc2cc(Cl)cc(O[C@H](C)C(=O)O)c2)c2ccc(C(=O)N[C@@H](C)c3ccc(C(C)(C)C)cc3)cc2n1CC1CCC1` gave an IC50 of 0.23 µM (PPARA ligand-binding domain; reporter gene, luciferase reporter; HEK293T, Gal4-PPARα LBD).
`CCOc1cc(CN2CC3(CC(N4CCC(C(=O)O)CC4)=NO3)C2)cc(OCC)c1-c1ccc(F)cc1` gave an IC50 of 7.41 µM (SSTR5 (Homo sapiens, UniProt P35346, L96A); cAMP level, antagonist, GloSensor; AD293; L96A mutant, bandwidth 2.60, with: CST17 EC80 and forskolin).
With `O=C(O)c1ccc(Oc2ccc(Cl)cc2NS(=O)(=O)c2ccc(Cl)c(Cl)c2)cc1` the IC50 was 3.69 µM (CCR1 (Homo sapiens, UniProt P32246); antagonist; U2OS membranes; 25 °C, with: 20 nM CCL3).
`O=C(NCCc1ccccc1)C(C(F)(F)F)C(F)(F)F` has an IC50 of 9.3 µM (Chymotrypsinogen A; enzyme activity, inhibitor, fluorescence).
`Cc1cc(NC2CCN(C)CC2)ccc1-c1cc2c(N3CCC[C@H](C(=O)NCc4ccc(OC(F)(F)F)cc4)C3)ncnc2[nH]1` has an IC50 of 7.56 µM (PAK4 (Homo sapiens, UniProt O96013); enzyme activity, inhibitor, mobility shift).
The IC50 of `Cc1nc(Nc2ccc3c(c2)/C(=C/c2ccccc2)C(=O)N3)c2ccccc2n1` is reported as 0.52 µM (PIK3CG; enzyme activity, inhibitor, ADP detection).
The IC50 of `Cc1c(Cc2ccc(OC(C)(C)C(=O)O)cc2)c2ccc(C(=O)N[C@@H](C)c3ccc(C4CC4)cc3)cc2n1C` is reported as 3.01 µM (PPARA ligand-binding domain; reporter gene, luciferase reporter; HEK293T, Gal4-PPARα LBD).
`C#CCNC(=O)c1ccc(S(=O)(=O)N[C@@H](CCCCNC(=S)NC)C(=O)N[C@@H](CCCNC(=N)N)C(=O)N[C@@H](CC2CCCCC2)C(N)=O)cc1` has an IC50 of 0.11 µM (SIRT2 (Homo sapiens, UniProt Q8IXJ6); enzyme activity, inhibitor, fluorescence).
`Cc1nn(-c2cccc(N)c2)c(=O)c2cnc(Nc3ccc(N4CCNCC4)cc3)nc12` has an IC50 of over 10 µM (DYRK1B (Homo sapiens, UniProt Q9Y463); kinase activity, inhibitor, SelectScreen kinase profiling).
`N#Cc1cnc(NC(=O)Nc2cc(Cl)ccc2OCCCN2C(=O)c3ccccc3C2=O)cn1` has an IC50 of 0.013 µM (CHEK1 (Homo sapiens, UniProt O14757); enzyme activity, inhibitor).
With `CCN(CC)CC(=O)Nc1cccc(-n2cc(-c3ccc4ccc(-c5cn(-c6cccc(NC(=O)CN(CC)CC)c6)nn5)cc4c3)nn2)c1` the IC50 was over 10 µM (ACVR1 (Homo sapiens, UniProt Q04771); enzyme activity, inhibitor).
The IC50 of `CC(C)(C)COCCOCCN1C[C@H](O)[C@@H](O)[C@H](O)[C@@H]1CO` is reported as 0.0023 µM (GBA2; inhibitor, 4MU-β-D-glucopyranoside; HEK293T homogenates overexpressing GBA2).
`CCOc1ccccc1NC(=O)C(C(F)(F)F)C(F)(F)F` has an IC50 of 30 µM (Chymotrypsinogen A; enzyme activity, inhibitor, fluorescence).

Excerpt of the above:
The IC50 of `CC(C)(C)COCCOCCN1C[C@H](O)[C@@H](O)[C@H](O)[C@@H]1CO` is reported as 0.0023 µM (GBA2; inhibitor, 4MU-β-D-glucopyranoside; HEK293T homogenates overexpressing GBA2).
